Assay results gathered from unrelated publications.
Every numbered part comes from another study and shows a few of its results, in no order. Changes are numbered by the printed parent chain.

Set 1
Target: Interferon regulatory factor 7, full length, phosphomimetic (IRF7, Homo sapiens, UniProt Q92985, residues 1-503, S101K/S471D/S472D/S475D/S476D/S477D/S483D/S484D/S487D)
Method: protein-binding microarray
Molecule type: double-stranded DNA, one strand shown
Sample: in vitro
Concentration: 250 nM
Setting: 60-bp whole probe
Added: salmon DNA 0.4 mg/ml
Relative to: random background probes
Reading: higher = stronger binding
Endpoint: log fluorescence
All sequences stand within: GCCTAGCAC … GTCTTGATTCGCTTGACGCTGCTG
Residues (chain): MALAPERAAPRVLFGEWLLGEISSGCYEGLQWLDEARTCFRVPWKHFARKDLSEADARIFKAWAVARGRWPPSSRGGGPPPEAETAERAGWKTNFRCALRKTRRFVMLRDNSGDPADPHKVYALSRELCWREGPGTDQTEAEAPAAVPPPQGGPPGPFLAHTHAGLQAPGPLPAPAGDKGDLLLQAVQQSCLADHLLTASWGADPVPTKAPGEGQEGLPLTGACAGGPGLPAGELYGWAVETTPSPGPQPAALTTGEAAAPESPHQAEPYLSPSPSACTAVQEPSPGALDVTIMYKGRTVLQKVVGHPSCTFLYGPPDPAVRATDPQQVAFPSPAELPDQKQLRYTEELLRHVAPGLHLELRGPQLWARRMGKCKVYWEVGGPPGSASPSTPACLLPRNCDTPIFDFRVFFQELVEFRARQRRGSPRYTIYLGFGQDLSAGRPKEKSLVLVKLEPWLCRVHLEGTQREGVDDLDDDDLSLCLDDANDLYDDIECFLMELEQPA
GACAGTCTCGGTTTCGGGACGTGCTAG: 8.19 z-score
TCAAGCAAAAATGATTGACTGTGCTAG: 0.0644 z-score
GAGGGTATCCTTATCCTGACGTGCTAG: -0.161 z-score
GATGGTTTCCTTCTCCTGACGTGCTAG: 2.72 z-score
TTAGAACTGAGTCTCGACTAGTGCTAG: 0.146 z-score
CTAGATCTCAGTTTCGATTAGTGCTAG: 8.68 z-score
TTAGGTATCCTTATACTTTAGTGCTAG: 0.262 z-score
TTAGGTATCGGGACGGGGTTAGTGCTA: 0.343 z-score
GACGATTTCAGTACCGAGACGTGCTAG: 0.213 z-score
GACGATATCAGCCTGGAGACGTGCTAG: -0.638 z-score
TGAGAACTGAGACTGGATTAGTGCTAG: -0.241 z-score
TTAGAATTCAGTTCCGATTAGTGCTAG: 0.982 z-score
GACCGTCTCGGACTGGGGACGTGCTAG: 0.239 z-score
GACGGTATCGTGTATCGGGACGTGCTA: -0.191 z-score
TCAGCTTTCTTTAACTCACTGTGCTAG: 0.287 z-score
ATCAGTTTAATATCTAAGATTGTGCTA: 0.319 z-score
TTAGAACTGGGGTATCGATTCGTGCTA: 1.4 z-score

Set 2
Target: Histone acetyltransferase KAT6A, winged helix 1, GST fusion (KAT6A, Homo sapiens, UniProt Q92794, residues 1-85)
Method: protein binding microarray
Molecule type: double-stranded DNA, one strand shown
Sample: in vitro
Concentration: not given
Setting: 8-mer, flanks averaged, mean of 2 arrays, mostly near background
Relative to: not given
Reading: higher = stronger binding
Endpoint: E-score
Construct (chain): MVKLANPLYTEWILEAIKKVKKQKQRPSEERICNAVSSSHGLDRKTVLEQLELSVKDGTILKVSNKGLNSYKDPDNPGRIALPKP
CCAGTTGC: -0.159
ATTTAAAC: -0.226
AGCGTTCC: 0.145
CCGTTATC: -0.00924
GTACTAAC: 0.07
ATTCTATG: -0.163
AATTCATG: -0.192
ATTCGTGC: -0.129
ATCTCGAC: -0.146
CTCAACAC: 0.0116
CTAAAGTA: -0.11
CATTTGCC: 0.0184
ACAGAACA: -0.12
ACTGGCCT: -0.0792

Set 3
Target: CCND3, cyclin fold, Cln2 fusion (human)
Method: yeast growth competition, sequencing
Sample: yeast
Setting: weak parent motif
Relative to: not given
Reading: higher = stronger binding
Endpoint: normalised enrichment score
Starting sequence: GMNC docking peptide (human); KNAKRNLSSEFAN; partner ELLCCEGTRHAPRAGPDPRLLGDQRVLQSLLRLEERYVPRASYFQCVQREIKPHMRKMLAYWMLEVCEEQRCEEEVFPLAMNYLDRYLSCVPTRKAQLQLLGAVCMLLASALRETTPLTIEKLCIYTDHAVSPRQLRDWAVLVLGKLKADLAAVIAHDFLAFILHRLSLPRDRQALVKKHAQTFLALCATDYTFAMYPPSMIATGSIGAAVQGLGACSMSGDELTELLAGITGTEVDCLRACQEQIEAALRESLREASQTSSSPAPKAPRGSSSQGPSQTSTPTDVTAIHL
R5C: 0.135
K4S: 0.13
K4T: -0.0309
N6M: -0.295
F11P: -0.316
E10Y: -0.449
R5W: 0.2
N6K: -0.0947
A3F: 0.509
S9A: 0.1
A12R: 0.244
S8Y: -0.00412

Set 4
Target: Centromere-binding protein 1, full length, N-terminal tag (CBF1, Saccharomyces cerevisiae, UniProt P17106, residues 1-351)
Sequence of UniProt P17106 (whole entry, looked up): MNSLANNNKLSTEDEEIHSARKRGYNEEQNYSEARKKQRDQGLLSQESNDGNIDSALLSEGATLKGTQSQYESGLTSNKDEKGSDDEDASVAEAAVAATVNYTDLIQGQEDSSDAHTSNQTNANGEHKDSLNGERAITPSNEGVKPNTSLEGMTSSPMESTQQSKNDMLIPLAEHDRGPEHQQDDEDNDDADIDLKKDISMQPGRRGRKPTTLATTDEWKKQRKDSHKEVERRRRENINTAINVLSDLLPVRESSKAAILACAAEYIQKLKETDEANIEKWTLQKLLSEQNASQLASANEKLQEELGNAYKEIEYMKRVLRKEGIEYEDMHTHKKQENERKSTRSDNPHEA
Method: protein-binding microarray
Molecule type: double-stranded DNA, one strand shown
Sample: in vitro
Concentration: 0.8 µM
Setting: whole 60-bp probe, no competitor
Reading: higher = stronger binding
Endpoint: fluorescence intensity
GAAGACAGCTCAGGTCCAGTCACGTTAAAGTGGTAGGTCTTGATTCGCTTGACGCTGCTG: 902 a.u.
CTAAAACAGTCATCAGGTGTAATAGAAGCTAATTTCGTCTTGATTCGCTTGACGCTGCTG: 723 a.u.
GAAATAGTAGCGTTTCCCGTGTTCTTTTCCCGTTAGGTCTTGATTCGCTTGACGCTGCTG: 565 a.u.
GAAGCTAAGAAGATATCCGTGATTTGCATCCGATAGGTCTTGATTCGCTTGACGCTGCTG: 552 a.u.
CTATCTAAAATTTTTCAGTCACCTTTAACGAAATTCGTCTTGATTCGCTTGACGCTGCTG: 579 a.u.
CTAATAACGACATGTCAGGTGGTACTGTAAGTTTTCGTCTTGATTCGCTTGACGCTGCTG: 1190 a.u.
GAATTCATATAAGATCACGTTGTTTATATGAATTAGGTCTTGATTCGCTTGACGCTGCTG: 4400 a.u.
CTAAGCGGCTGTCGTCACGCACCATGGGTACCATTCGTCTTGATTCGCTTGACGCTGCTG: 627 a.u.
GAACCCACGTCCAATCAGCAGAGAGAAGCTGTTTAGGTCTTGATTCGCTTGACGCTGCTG: 1690 a.u.
GAAAGGGGAATAGGTCACATGAAACGACGACAATAGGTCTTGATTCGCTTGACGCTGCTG: 2160 a.u.
CTACCTTAATGTGGACAGCTGAGATGAAGGTGGTTCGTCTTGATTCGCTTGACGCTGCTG: 535 a.u.
TGTACGAAGCTATGCACCGTGACTATAGTAGTTAGGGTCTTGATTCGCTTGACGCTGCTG: 674 a.u.
GAAATTTTCCAGCCACACGTGAAGTAAGCTGCATAGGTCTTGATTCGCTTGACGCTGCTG: 1820 a.u.
CTAAAGAAGGTGAGCGTGATGGCGTAAATAATATTCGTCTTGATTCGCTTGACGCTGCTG: 624 a.u.
CTATCGCACATACACCACCTTCTTTTTTTTTTTTTCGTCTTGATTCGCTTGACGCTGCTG: 538 a.u.

Set 5
Target: Sal-like protein 4, full length isoform B (SALL4, Homo sapiens, UniProt Q9UJQ4-2, residues 1-616)
Method: universal PBM
Molecule type: double-stranded DNA, one strand shown
Sample: in vitro
Concentration: not given
Setting: 8-mer, flanks averaged, mean of replicates
Reading: higher = stronger binding
Endpoint: E-score
AACACACT: 0.0806
ACCCATTC: -0.0202
CCTATGAA: 0.135
GTAGAACA: -0.0785
AACGGAGT: -0.0292
CACCCTTC: -0.131
CCAATTCC: -0.0547
ACTTTACC: 0.216
AACCCACA: 0.0989
ATCCGCTA: -0.0635
TACCCGAA: 0.138
CCCATCCG: -0.159
AGATTGGG: 0.121
GCAATGCC: -0.118
ACAATCTG: 0.0997
GACCACGC: -0.25
AGATCATC: 0.0756
CCAAGTAG: -0.233
CTCGCAGC: -0.221
ATCGCGAC: -0.0915
AAAACGGT: 0.0236
AATGAGAG: 0.132

Set 6
Target: Prothrombin, mature alpha-thrombin (F2, Homo sapiens, UniProt P00734)
Method: aptamer microarray, sandwich
Molecule type: DNA with 2'F-ANA
Sample: in vitro
Concentration: 200 nM
Setting: whole 15-mer aptamer, many near background
Added: Cy3 exosite-II aptamer, 400 nM
Reading: higher = stronger binding
Endpoint: mean fluorescence intensity
Oligonucleotide: GGTTGGTGTGGTTGG
2'F-ANA at 1 2 4 7 10 11 13 14 15: 48.3 a.u.
2'F-ANA at 1 3 4 5 8 9 11 12 14: 44.4 a.u.
2'F-ANA at 2 4 6 10 11 12: 101 a.u.
2'F-ANA at 1 2 4 5 7 9 11 12 15: 82.5 a.u.
2'F-ANA at 2 5 10 11 12 13 14: 45.8 a.u.
2'F-ANA at 2 5 6 11 13: 55.2 a.u.
2'F-ANA at 1 3 8 10 12 13 14: 69.1 a.u.
2'F-ANA at 3 5 7 8 10 13 14 15: 70.1 a.u.
2'F-ANA at 1 5 6 8 9 10: 46 a.u.
2'F-ANA at 1 3 6 7 9 12 13 14: 90.7 a.u.
2'F-ANA at 1 3 4 6 7 9 10 12: 77 a.u.
2'F-ANA at 1 2 3 4 6 8 11 13 14: 62.2 a.u.
